Experimental data from different studies.
Every numbered part comes from another study and shows a few of its results, in no order.

Set 1
Target: RNA binding protein fox-1 homolog 2, RRM domain, GST-SBP tag (RBFOX2, Homo sapiens, UniProt O43251-10, residues 100-194)
Technique: RNA Bind-n-Seq
Molecule type: RNA
Sample: in vitro
Concentration: 365 nM
Setting: natural RNA segment, single round, ends assumed
Baseline: no-protein control
Reading: higher = stronger binding
Constant ends, left off below: GGGAGUUCUACAGUCCGACGAUC … UGGAAUUCUCGGGUGCCAA
Oligonucleotide | RBNS enrichment (R)
UGGAUGCAAGAUAGAUACUAUAUUAAACUGUACUGUUAUUUAAGAUGUAAUAAAGCAGUUUGACAUGGGGACUUUGGUGUGGUGAUUAUUUACGGGUCCACUUCCAGUUU | 0.809
AGAGGCAGGUCCCCCAGGCUGGGAUGCUGGCCCCUAGACUAGGGUGCUGACCCCUGGGCUGGGGUGCUGUGUGCUACCUCCCACUGUGAAAUCGCUGGUGCUCACAAUUG | 0.543
UUGCCUUUUGUAAAGCUCUUUUGGCUAUUGUAACUUAACAAAUAAAAUCAUAAUUGUGUGCAUCUCUAGUUCUUGAGCAGCCUGUUACUUCUGUUUCUAAACAGAGUGGG | 1.5
CUAGGUAUCUUCUAGAGCAGUGAUUCUCAACCUUGCUAAUGCUGUGACCCUUUAAUACAUACAGUUCCUCAUGGUGUGGUGACCCCCCCCAACCAUAAAAUUAUCUUAUU | 0.727
AUUGUAUAUUUAGUGUGUGUAUUUUGAUAAUGAUUGAUCUUAAAUCUGUAUACAGAAUAUCAUUGAUAUAAUACUCUUUAGGCAGGAGCACUCUUGCCUUCCCCCAAAAU | 0.379
CUUGUGGGGAGGGCUCAGGAAUGAUUUAACCCCCCCUAAGAUUAUGGUUGGGUCAGUACAGAUUCCAGGUGACUUCCUUUUUCCAUGUGCCGGGAUGGGAGGGCUGUGUU | 0.774
UCCAAACUGAAAUUAUCUGCUUUCUGCAUUAGAAUGUAAGCCCCCUGAGGGUUGAGUCAGUCUGUCUUGUUUGCUGUGCCACGCCUGAUGCCCAGCCCAGCAGCAUGCUU | 5.6
CUCAGCACCACUUUCAUUCUGGACCUGGGACCUUAGGAGCCGGGUGACAGCACUAACCAGACCUCCAGCCACUCACAGCUCUUUUUAAAAAACAGCUUCAAAAUAUGCAG | 0.497

Set 2
Target: Interferon regulatory factor 5, full length, phosphomimetic (IRF5, Homo sapiens, UniProt Q13568-2, residues 1-514, S451D/S453D/S456D/S462D)
Technique: protein-binding microarray
Molecule type: double-stranded DNA, one strand shown
Sample: in vitro
Concentration: 940 nM top
Setting: 60-bp whole probe
Added: salmon DNA 0.4 mg/ml
Baseline: random background probes
Reading: higher = stronger binding
Constant ends, left off below: GCCTAGCAC … GTCTTGATTCGCTTGACGCTGCTG
Oligonucleotide | fitted relative affinity [z-score]
GACGGACCGGACACTGGGGACGTGCTA | -0.576
TTAGGTTTCGGTCCCGGTTAGTGCTAG | 15
TTAGGACTGGGTCTCGCTTAGTGCTAG | 0.182
GACCGACTGGACACTGGGGACGTGCTA | -0.168
TTTGGACTGGGGTATCGGTTAGTGCTA | 2.84
TTAGGACCGGGACTGGGTTAGTGCTAG | -0.332
GACGGTATCGGTCTCGCGACGTGCTAG | 8.33
GACGATTTCAGTATCGAGATGTGCTAG | 2.16
GACGGACTGCTACTGCTCACGTGCTAG | -0.651
TCACATATAATTTTGTCATCGTGCTAG | 0.635
GACGGTCTCCTTCTCCTTACGTGCTAG | 0.324
GACGATATCAGAATGGAGACGTGCTAG | -0.523
TGAGGTATCGACTATCGGTTAGTGCTA | 3.64
TTAGGTCTCCTTCTACTTTAGTGCTAG | 0.592
ATATATTCATATATATATGAGTGCTAG | 0.263
TTAGGAATGGGGACTGGGTTAGTGCTA | 0.0655
GACGGTTTCTGGTTTCGGGACGTGCTA | 5.76
TTAGATCTCAGTATCGGTTAGTGCTAG | 5.01

Set 3
Target: Histone acetyltransferase KAT6A, winged helix 2, GST fusion (KAT6A, Homo sapiens, UniProt Q92794, residues 85-181)
Technique: protein binding microarray
Molecule type: double-stranded DNA, one strand shown
Sample: in vitro
Concentration: not given
Setting: 8-mer, flanks averaged, mean of 2 arrays, mostly near background
Baseline: not given
Reading: higher = stronger binding
Construct (chain): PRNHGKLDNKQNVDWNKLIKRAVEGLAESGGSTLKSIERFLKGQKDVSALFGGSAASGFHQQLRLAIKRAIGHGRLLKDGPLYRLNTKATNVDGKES
Oligonucleotide | E-score
ACTTGGGA | 0.0677
CAGCACTG | -0.0888
GAGAACCA | -0.0102
GATATGCA | -0.0799
TATCAAAA | 0.0899
CACATGGC | 0.0363
AGCACTTC | -0.0358
ATTCTCGG | 0.0312
CGAAAAAC | 0.0426
GAGAAAAA | 0.125
GAAGCGAC | 0.054
ACCCACAA | 0.145
CGTAACGC | 0.0297
GCCTCAAA | 0.0846
GGTGGATA | 0.0956
AGTAAAAG | 0.16
ACTTTGAT | -0.0143

Set 4
Target: Centromere-binding protein 1, full length, His-tagged (CBF1, Saccharomyces cerevisiae, UniProt P17106, residues 1-351)
Sequence of UniProt P17106 (whole entry, looked up): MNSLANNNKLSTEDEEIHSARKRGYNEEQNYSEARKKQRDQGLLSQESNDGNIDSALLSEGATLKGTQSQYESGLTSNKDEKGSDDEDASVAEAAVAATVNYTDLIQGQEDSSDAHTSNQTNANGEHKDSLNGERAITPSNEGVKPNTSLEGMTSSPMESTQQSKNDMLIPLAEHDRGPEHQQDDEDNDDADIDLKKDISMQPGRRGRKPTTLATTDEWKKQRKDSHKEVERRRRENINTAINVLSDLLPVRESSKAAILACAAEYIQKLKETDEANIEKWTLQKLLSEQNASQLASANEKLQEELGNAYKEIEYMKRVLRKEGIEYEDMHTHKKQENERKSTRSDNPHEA
Technique: competition protein-binding microarray
Molecule type: double-stranded DNA, one strand shown
Sample: in vitro
Concentration: 2 µM
Setting: whole 60-bp probe, lowest competitor level
Added: Pho4 competitor, 0.05 µM
Reading: higher = stronger binding
Constant ends, left off below: … GTCTTGATTCGCTTGACGCTGCTG
Oligonucleotide | fluorescence intensity [a.u.]
CGATGGCGCCAGCATCACCTGGAGAGCATGGTGTTA | 68.8
AAGAGAAAAAGTACAAACGTGTAGAGCAGGATGATC | 260
CTTTCCCGATCTTGCCCAGTGGGTGTAGCACATTTG | 61.6
TGTTGAAGACCTCACTTCGTGACGGTTCGGCTTCGA | 65.9
ACCTCGGCTGCGCCTTCCGTGATGGCCATCACTGTC | 76.5
CTAACGAAGGTTTTTCACGTGATATACAAGCCAAGT | 3110
CTTCTGTAAATTTGCCGCGTGGGTGGACGCGCCCCG | 89.1
AAAGCGGTAATTTGCCCTGTGGGTGCAGATATCTAT | 67.4
GTCTTGTCTCATTGCGCGGTGGGTGTCCCCACTTCA | 81.3
ACTCAGTTACTCAGTCAGCTGATGCGATGCGATGTT | 618
GACTAGGTTTGAAAGCACGTTGGAAGACATACGGAA | 99.4
ATCCAGAACATTTTGCACGTGTTCCTTATACAGTCG | 2570
TGGCATTCGTCTACCCACGTCTTGGGTGAATCTTGT | 54.5
AGAGAGTTGATAGAACAAAGGACAAAGAAATTTAGA | 76.4
TTTTCAAGGGATAAGCACATGACAATGGGCGACAAA | 366
TTGGTCTACCAAATGCACCTGATTTACAAGCGGCTA | 159
GGGGAATTTCGCCGTCACGTTGTTTTGGTAAGTTCC | 908
TCATCGCACATTTTGCACGATGAGGACACAGGAAAT | 70.2
GTCTTGTCTCATTGTCACGGTACTTTCCCCACTTCA | 170

Repeated from above (set 4):
Oligonucleotide | fluorescence intensity [a.u.]
TTGGTCTACCAAATGCACCTGATTTACAAGCGGCTA | 159
GGGGAATTTCGCCGTCACGTTGTTTTGGTAAGTTCC | 908
TCATCGCACATTTTGCACGATGAGGACACAGGAAAT | 70.2
GTCTTGTCTCATTGTCACGGTACTTTCCCCACTTCA | 170
